Results from different studies.
Each numbered part is a random draw from the data of one study; scales do not carry over between parts. Substitutions count along the parent as printed.

Block 1
Target: CCNE2, cyclin fold, Cln2 fusion (human)
Method: yeast growth competition, sequencing
Medium: yeast
Setting: weak parent motif
Relative to: not given
Direction: higher = stronger binding
Starting sequence: WEE1 docking peptide (human); CTLRQKLIFSPCS
Substitution	normalised enrichment score
F9A	0.124
C1A	0.329
L7A	0.374
C12A	0.333
R4A	0.197
I8A	0.59

Block 2
Target: Sal-like protein 4, full length isoform A (SALL4, Homo sapiens, UniProt Q9UJQ4, residues 1-1053)
Sequence of UniProt Q9UJQ4 (whole entry, looked up): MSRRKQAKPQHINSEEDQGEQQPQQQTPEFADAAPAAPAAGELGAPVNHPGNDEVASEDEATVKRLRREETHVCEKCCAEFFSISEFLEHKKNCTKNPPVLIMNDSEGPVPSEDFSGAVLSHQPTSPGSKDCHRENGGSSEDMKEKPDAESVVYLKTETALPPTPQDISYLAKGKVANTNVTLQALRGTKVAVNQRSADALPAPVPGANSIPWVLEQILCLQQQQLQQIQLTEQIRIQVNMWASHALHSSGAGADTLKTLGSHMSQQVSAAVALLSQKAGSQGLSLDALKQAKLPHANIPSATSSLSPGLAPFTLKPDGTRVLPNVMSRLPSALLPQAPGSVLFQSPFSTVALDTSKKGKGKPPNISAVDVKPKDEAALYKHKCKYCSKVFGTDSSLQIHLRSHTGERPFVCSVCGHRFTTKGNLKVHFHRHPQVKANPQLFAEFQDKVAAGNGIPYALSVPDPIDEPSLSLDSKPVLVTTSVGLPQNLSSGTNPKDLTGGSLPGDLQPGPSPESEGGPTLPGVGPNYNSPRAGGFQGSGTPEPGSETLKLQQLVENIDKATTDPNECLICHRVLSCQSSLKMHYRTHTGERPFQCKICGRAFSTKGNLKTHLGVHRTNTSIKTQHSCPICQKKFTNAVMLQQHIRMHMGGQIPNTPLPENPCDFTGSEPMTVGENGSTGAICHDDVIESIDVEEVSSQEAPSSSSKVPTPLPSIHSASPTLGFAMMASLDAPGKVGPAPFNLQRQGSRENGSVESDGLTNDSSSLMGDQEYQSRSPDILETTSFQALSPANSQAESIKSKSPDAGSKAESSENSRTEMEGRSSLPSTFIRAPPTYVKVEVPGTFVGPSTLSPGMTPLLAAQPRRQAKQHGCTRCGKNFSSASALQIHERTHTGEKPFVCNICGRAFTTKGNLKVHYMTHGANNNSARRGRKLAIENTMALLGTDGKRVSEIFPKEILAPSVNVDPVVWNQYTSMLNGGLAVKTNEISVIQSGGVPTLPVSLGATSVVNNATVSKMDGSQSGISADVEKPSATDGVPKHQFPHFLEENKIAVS
Method: universal PBM
Molecule type: double-stranded DNA, one strand shown
Medium: in vitro
Concentration: 600 nM
Setting: 8-mer, flanks averaged, mean of replicates
Direction: higher = stronger binding
Oligonucleotide	E-score
CCTTGTCC	-0.159
GGCGAACC	-0.263
CACGGACC	-0.314
CGTACTCA	-0.0379
ACGTAGCG	-0.181
CTCGTCGA	-0.127
GTTTCATA	0.313
TAAATTAA	0.324
CTATGACA	0.167
GCTGCGCC	-0.389
AGGATCTA	-0.0662
TCCAATCA	-0.0265
CAGCACTA	-0.131
CCAACGAG	-0.0636
AGTGTGCA	0.0254
CTAGTGCC	-0.232

Block 3
Target: Interferon regulatory factor 5, full length, phosphomimetic (IRF5, Homo sapiens, UniProt Q13568-2, residues 1-514, K96S/S451D/S453D/S456D/S462D)
Method: protein-binding microarray
Molecule type: double-stranded DNA, one strand shown
Medium: in vitro
Concentration: 250 nM
Setting: 60-bp whole probe
Together with: salmon DNA 0.4 mg/ml
Relative to: random background probes
Direction: higher = stronger binding
Constant ends, left off below: GCCTAGCAC … GTCTTGATTCGCTTGACGCTGCTG
Oligonucleotide	log fluorescence
GACGAACTGGGGTTTCGAGAAGTGCTA	1.1 z-score
CACTTTCTTTACTTCACTCTGTGCTAG	3.35 z-score
GTAGGTTTCCTTATCCTTTAGTGCTAG	0.9 z-score
TTAAGTATCCTTATCCTTTAGTGCTAG	0.826 z-score
GACGATATCAGTCTCGAGCCGTGCTAG	1.07 z-score
TTAGAACTGAGTCTCGCTTAGTGCTAG	0.245 z-score
TCACTAATGTTTTTTAAACTGTGCTAG	0.573 z-score
TCATAAGTTTCACTCTGCACTGTGCTA	5.91 z-score
TTAGGACCGGGACTGGGTTAGTGCTAG	-0.271 z-score
TCATTTCTCTTTCATTGCACTGTGCTA	5.01 z-score

Other studies, line by line
Substance	target	test	system	conditions	how to read	measurement	result
PhoQ, residues 284 288 289 292 302 303 DDMDFR	PhoP, residues 12 14 15 18 19 GMGLL (Escherichia coli, UniProt P23836)	Sort-seq, measured: YFP reporter	E. coli	PhoQ-PhoP variant library, together with: 10 µM Mg2+	relative to: high Mg2+ state, higher = stronger signaling	fold induction	0.671

Excerpt of the above (block 2):
Oligonucleotide	E-score
GTTTCATA	0.313
CCAACGAG	-0.0636
CTATGACA	0.167
TCCAATCA	-0.0265
